Results collected from several papers.
Protocols differ between the studies behind these lines.
Target: Adenosine receptor A1 (ADORA1, Homo sapiens, UniProt P30542)
UniProt P30542, sequence (whole entry, looked up): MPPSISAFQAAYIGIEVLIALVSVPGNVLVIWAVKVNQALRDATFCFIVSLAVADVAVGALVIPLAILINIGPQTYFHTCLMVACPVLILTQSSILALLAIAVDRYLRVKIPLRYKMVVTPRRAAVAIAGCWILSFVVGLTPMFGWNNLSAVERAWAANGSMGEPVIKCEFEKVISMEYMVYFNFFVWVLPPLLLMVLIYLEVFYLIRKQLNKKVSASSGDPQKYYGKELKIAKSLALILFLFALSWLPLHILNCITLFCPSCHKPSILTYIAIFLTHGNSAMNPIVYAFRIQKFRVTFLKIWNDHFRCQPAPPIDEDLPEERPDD

`COc1ccc(S(=O)(=O)N2CCc3ccccc3C2)cc1N1CCN(C(=O)c2ccc(F)cc2C(F)(F)F)CC1` has an inhibition of 2.7% (ligand displacement, radioligand; 1 µM).
For `CC(=O)c1cnc(N)nc1N1CC[C@H]1c1nn2ccc(Cl)c2c(=O)n1-c1ccccc1`, the inhibition was 11% (ligand displacement, radioligand; 10 µM).
For `Cc1[nH]nc2c1N=C(c1ccccc1Cl)c1cnc(N3CCOCC3)cc1N2`, the inhibition was 18% (cell-free assay; 10 µM).
For `OCC1OC(n2cnc3c(NCc4ccc(Br)s4)ncnc32)C(O)C1O` (stereo not drawn), the inhibition was 49% (ligand displacement, radioligand; 10 µM).
With `O=C(O)COc1cccc(NC(=O)c2cc(-c3cccc(F)c3)ccc2F)c1` the inhibition was 3% (ligand displacement, radioligand; 10 µM).
`COCC(=O)N1CCc2cc(-c3csc(NC(=O)c4cc(OC)cc(OC)c4)n3)ccc21` has an inhibition of 20% (ligand displacement, radioligand; 10 µM).
With `O=C1c2sc(-c3ccc(N4CCC(F)C4)nc3F)nc2CCN1c1cccnc1` (stereo not drawn) the inhibition was 2% (ligand displacement, radioligand; 1 µM).
The inhibition of `Cn1ccc2cc(-n3c(=O)[nH]c4sc5c(c4c3=O)CCCC5)ccc21` is reported as -1% (cell-free assay, radioligand; 10 µM).
The inhibition of `CO[C@@H](C)c1c(NC(=O)Nc2cnc(-n3nccn3)c(C(F)(F)F)c2)cnc2sc(C)nc12` is reported as 53.9% (ligand displacement, radioligand; 10 µM).
